{"data": "Results of several laboratories", "note": "Compare with care: the assays were run in different laboratories. Values joined by “and” are separate records of one study, mostly repeats; a detail may differ. Numbers after ± are the reported error.", "sequence of UniProt P04062 (whole entry, unmodified, looked up)": "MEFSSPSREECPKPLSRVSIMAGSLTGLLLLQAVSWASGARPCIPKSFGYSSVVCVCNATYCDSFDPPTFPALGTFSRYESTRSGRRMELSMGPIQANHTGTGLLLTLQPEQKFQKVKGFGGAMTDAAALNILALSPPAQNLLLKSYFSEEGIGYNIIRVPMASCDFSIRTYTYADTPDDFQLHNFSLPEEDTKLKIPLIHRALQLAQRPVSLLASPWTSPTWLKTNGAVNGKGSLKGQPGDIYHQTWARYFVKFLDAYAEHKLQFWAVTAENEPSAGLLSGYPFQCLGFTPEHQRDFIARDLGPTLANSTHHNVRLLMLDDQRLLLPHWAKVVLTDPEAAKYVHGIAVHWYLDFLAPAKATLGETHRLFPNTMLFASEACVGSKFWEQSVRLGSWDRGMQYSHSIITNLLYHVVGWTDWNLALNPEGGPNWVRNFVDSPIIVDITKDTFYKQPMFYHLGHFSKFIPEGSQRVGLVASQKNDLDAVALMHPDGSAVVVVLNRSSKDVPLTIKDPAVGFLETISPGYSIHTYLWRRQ"}
{"Molecule": "Cc1cc(-c2ccc(NC(=O)CC[C@H](NC(=O)CN3CCN(CC(=O)O)CCN(CC(=O)O)CCN(CC(=O)O)CC3)C(=O)NCC(=O)N[C@@H](CC(N)=O)C(=O)N[C@H](C(=O)N[C@H](C(=O)N[C@@H](CCCNC(=N)N)C(=O)N[C@@H](CCC(N)=O)C(=O)O)C(C)C)C(C)C)c(C)c2)ccc1/N=N/c1ccc2c(S(=O)(=O)O)cc(S(=O)(=O)O)c(N)c2c1O [copper-64 labelled]", "system": "nude mice, heart", "conditions": "intravenous, 4 h", "endpoint": "tissue uptake", "value": "13.7 ± 2.04 %ID/g"}
{"Molecule": "C=C1CC[C@H](OCCCNC(=O)CCOCCOCCOCCOCCOCCOCCOCCOCCOCCOCCOCCOCCOCCOCCOCCOCCOCCOCCOCCOCCOCCOCCOCCOCCOCCOCCOCCOCCOCCOCCOCCOCCOCCOCCOCCOCCNC(=O)CCN2C(=O)CC(SC[C@H](NC(=O)[C@H](Cc3ccccc3)NC(=O)[C@H](CC(N)=O)NC(=O)[C@H](Cc3c[nH]cn3)NC(=O)[C@@H](NC(=O)[C@H](CC(=O)O)NC(=O)[C@H](CCC(N)=O)NC(=O)[C@H](CC(C)C)NC(=O)[C@H](CCCCN)NC(=O)[C@H](CCCCN)NC(=O)[C@H](CCCNC(=N)N)NC(=O)[C@H](CC(C)C)NC(=O)[C@H](Cc3c[nH]c4ccccc34)NC(=O)[C@H](CCC(=O)O)NC(=O)[C@@H](NC(=O)[C@H](CCCNC(=N)N)NC(=O)[C@H](CCC(=O)O)NC(=O)[C@H](CCSC)NC(=O)[C@H](CO)NC(=O)[C@H](CC(N)=O)NC(=O)[C@H](CC(C)C)NC(=O)[C@H](Cc3c[nH]cn3)NC(=O)[C@H](CCCCN)NC(=O)CNC(=O)[C@H](CC(C)C)NC(=O)[C@H](CC(N)=O)NC(=O)[C@H](Cc3c[nH]cn3)NC(=O)[C@H](CCSC)NC(=O)[C@H](CC(C)C)NC(=O)[C@H](CCC(N)=O)NC(=O)[C@@H](NC(=O)[C@H](CCC(=O)O)NC(=O)[C@H](CO)NC(=O)[C@@H](NC(=O)[C@@H](N)CO)C(C)C)[C@@H](C)CC)C(C)C)C(C)C)C(=O)O)C2=O)C/C1=C/C=C1\\CCC[C@]2(C)[C@@H]([C@H](C)CCCC(C)(C)O)CC[C@@H]12 (stereo partly shown)", "system": "male cynomolgus monkey, plasma", "conditions": "subcutaneous, 0.07 mg/kg, single dose", "endpoint": "MRT", "value": "17.5 h"}
{"Molecule": "N=C(N)NCCC[C@@H]1NC(=O)[C@H](CCCCNC(=S)Nc2ccc(CC3CN(CC(=O)O)CCN(CC(=O)O)CCN(CC(=O)O)CCN3CC(=O)O)cc2)NC(=O)[C@@H](Cc2ccc(O)cc2)NC(=O)[C@H](CC(=O)O)NC(=O)CNC1=O (stereo partly shown) [actinium-225 labelled]", "system": "mice with U-87 MG tumour, kidney", "endpoint": "effective half-life", "value": "19.9 h"}
{"Molecule": "CCCC[C@H](NC(=O)CCCCCCCNC(=O)CN1CCN(CC(=O)O)CCN(CC(=O)O)CC1)C(=O)N[C@H]1CC(=O)NCCCC[C@@H](C(N)=O)NC(=O)[C@H](Cc2c[nH]c3ccccc23)NC(=O)[C@H](CCCNC(=N)N)NC(=O)[C@@H](Cc2ccccc2)NC(=O)[C@H](Cc2c[nH]cn2)NC1=O [technetium-99m labelled]", "system": "C57 mouse, muscle", "conditions": "intravenous, 0.037 MBq, 4 h", "endpoint": "tissue uptake", "value": "0.02 ± 0.03 %ID/g"}
{"Molecule": "Cc1ccc2c(c1)sc(-c1ccc(N(C)C)cc1)[n+]2C.[I-]", "tested on": "Trypanosoma cruzi", "test": "reporter mRNA translation, inhibitor, refers to: capped polyadenylated Renilla luciferase mRNA", "system": "cell-free extract", "conditions": "concentration not given", "scale": "baseline: control RNA", "endpoint": "relative translation", "value": "61%"}
{"Molecule": "CC(C)C[C@H](NC(=O)[C@H](Cc1ccc(O)cc1)NC(=O)[C@@H](CCCNC(=N)N)NC(=O)[C@@H](CO)NC(=O)[C@H](Cc1ccccc1)NC(=O)[C@H](CC1CCCCC1)NC(=O)[C@H](CC(=O)O)NC(=O)CN1CCN(CC(=O)O)CCN(CC(=O)O)CCN(CC(=O)O)CC1)C(=O)N[C@@H](Cc1c[nH]c2ccccc12)C(=O)N[C@@H](CO)C(=O)O [copper-64 labelled]", "system": "human, red marrow", "conditions": "concentration not given, 3 h", "endpoint": "activity concentration", "value": "1440 Bq/mL and 738 Bq/mL and 960 Bq/mL and 878 Bq/mL and 1610 Bq/mL and 1110 Bq/mL"}
{"Molecule": "human nucleophosmin", "test": "far-UV CD, CDSSTR", "system": "Tris buffer, NaCl", "conditions": "pH 7.5, room temperature", "endpoint": "unstructured content", "value": "47%"}
{"Molecule": "CCCC[C@@H]1NC(=O)[C@@H](CC(C)C)NC(=O)[C@H](CCCCNC(=O)CN2CCN(CC(=O)O)CCN(CC(=O)O)CC2)NC(=O)NNC(=O)[C@H](Cc2c[nH]cn2)NC(=O)[C@@H](Cc2c[nH]c3ccccc23)NC1=O [copper-64 labelled]", "system": "Balb/c mice, pancreas", "conditions": "intravenous, dose not given", "endpoint": "tissue uptake", "value": "0.21 %ID/g"}
{"Molecule": "Cc1ccnc(-c2cc(C(=O)NCCCCCC(=O)N[C@@H](CCCNC(=N)N)C(=O)N[C@@H](CCCNC(=N)N)C(=O)N[C@@H](Cc3c[nH]c4ccccc34)C(=O)N[C@@H](Cc3c[nH]c4ccccc34)C(=O)N[C@@H](CCCNC(=N)N)C(=O)N[C@@H](Cc3c[nH]c4ccccc34)C(=O)N[C@@H](Cc3c[nH]c4ccccc34)C(=O)N[C@@H](CCCNC(=N)N)C(=O)N[C@@H](CCCNC(=N)N)C(N)=O)ccn2)c1 (stereo in doubt)", "test": "RNO/histidine method", "system": "PBS", "conditions": "added: irradiation 365 nm", "scale": "baseline: phenalenone", "endpoint": "singlet oxygen yield", "value": "7%"}
{"Molecule": "OC[C@@H]1[C@@H](O)[C@H](O)[C@@H](O)CN1CCCCCOCC(COCCCCCN1C[C@H](O)[C@@H](O)[C@H](O)[C@H]1CO)C12CC3CC(CC(C3)C1)C2", "tested on": "Lysosomal acid glucosylceramidase (GBA1, Homo sapiens, UniProt P04062, R534H)", "test": "inhibitor, 4MU-β-D-glucopyranoside", "conditions": "added: 4MU-β-D-glucopyranoside", "endpoint": "IC50", "value": "380 nM"}
{"Molecule": "O=C(Nc1ccon1)C12CC3CC(C1)CC(n1cnc([N+](=O)[O-])n1)(C3)C2", "tested on": "Trypanosoma cruzi", "test": "reporter mRNA translation, inhibitor, refers to: Renilla luciferase mRNA", "system": "cell-free extract", "conditions": "concentration not given, test 2", "scale": "baseline: positive over negative control", "endpoint": "translation activity", "value": "111%"}
{"Molecule": "CCCC[C@@H]1NC(=O)[C@@H](CC(C)C)NC(=O)[C@H](CCCCNC(=O)CN2CCN(CC(=O)O)CCN(CC(=O)O)CC2)NC(=O)[C@@H](CO)NC(=O)[C@H](Cc2c[nH]cn2)NC(=O)[C@@H](Cc2c[nH]c3ccccc23)NC1=O [copper-64 labelled]", "system": "Balb/c mice, bone", "conditions": "intravenous, dose not given", "endpoint": "tissue uptake", "value": "0.28 ± 0.04 %ID/g"}
{"Molecule": "N#C[C@@H]1CC(F)(F)CN1C(=O)CNC(=O)c1ccnc2ccc(OCCCN3CCN(C(=O)CN4CCN(CC(N)=O)CCN(CC(N)=O)CCN(CC(N)=O)CC4)CC3)cc12 [lead-212 labelled]", "system": "male NRG mice, HEK293T-hFAP tumour, blood", "conditions": "intravenous, 100 pmol, 1 h, ex vivo, unblocked", "endpoint": "tissue uptake", "value": "0.97 ± 0.1 %IA/g"}
{"note": "A few entries again:"}
{"Molecule": "O=C(Nc1ccon1)C12CC3CC(C1)CC(n1cnc([N+](=O)[O-])n1)(C3)C2", "tested on": "Trypanosoma cruzi", "test": "reporter mRNA translation, inhibitor, refers to: Renilla luciferase mRNA", "system": "cell-free extract", "conditions": "concentration not given, test 2", "scale": "baseline: positive over negative control", "endpoint": "translation activity", "value": "111%"}
{"Molecule": "CCCC[C@@H]1NC(=O)[C@@H](CC(C)C)NC(=O)[C@H](CCCCNC(=O)CN2CCN(CC(=O)O)CCN(CC(=O)O)CC2)NC(=O)[C@@H](CO)NC(=O)[C@H](Cc2c[nH]cn2)NC(=O)[C@@H](Cc2c[nH]c3ccccc23)NC1=O [copper-64 labelled]", "system": "Balb/c mice, bone", "conditions": "intravenous, dose not given", "endpoint": "tissue uptake", "value": "0.28 ± 0.04 %ID/g"}
